Experimental data from different studies.
A part holds a random share of what one study measured. Changes are numbered by the printed parent chain.

Series 1
Target: ABI1, truncated, D143A, DHFR fusion (Arabidopsis thaliana)
Technique: DHFR PCA, deep sequencing
Sample: yeast
Setting: methotrexate growth selection, single substitutions
With: (+)-ABA 0 µM
Relative to: wild-type fitted maximum
Direction: higher = stronger binding
Parent: PYL1, truncated, DHFR fusion (Arabidopsis thaliana); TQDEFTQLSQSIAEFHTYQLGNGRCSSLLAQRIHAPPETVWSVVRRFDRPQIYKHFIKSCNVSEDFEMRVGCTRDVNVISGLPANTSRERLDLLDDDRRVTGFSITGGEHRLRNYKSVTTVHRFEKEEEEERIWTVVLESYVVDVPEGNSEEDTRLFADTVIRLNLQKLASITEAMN; partner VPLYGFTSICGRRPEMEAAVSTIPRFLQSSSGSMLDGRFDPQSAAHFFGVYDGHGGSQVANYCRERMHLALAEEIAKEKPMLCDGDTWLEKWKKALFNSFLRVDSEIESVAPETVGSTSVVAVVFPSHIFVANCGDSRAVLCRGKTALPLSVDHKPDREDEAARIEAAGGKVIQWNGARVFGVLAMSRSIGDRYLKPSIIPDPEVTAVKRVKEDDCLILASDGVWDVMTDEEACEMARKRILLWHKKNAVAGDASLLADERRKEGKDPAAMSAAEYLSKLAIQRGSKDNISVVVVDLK
For `T73S`, “relative binding score” read 2.15%.
For `P37F`, “relative binding score” read 0.619%.
Under “relative binding score”, `D75F` is recorded as 15.4%.
Under “relative binding score”, `Q7S` is recorded as 26.9%.
Under “relative binding score”, `T154E` is recorded as -9.16%.
`E128S` — result for “relative binding score”: 30.8%.
Under “relative binding score”, `F66M` is recorded as 3.59%.
`S27W`: “relative binding score” 0.421%.

Series 2
Target: CRIPT, C-terminal peptide
Technique: DHFR complementation, deep sequencing
Sample: yeast
Setting: single substitutions, model-inferred values
Relative to: wild type
Direction: higher = weaker binding
Parent: ERBIN, PDZ domain 1 (human); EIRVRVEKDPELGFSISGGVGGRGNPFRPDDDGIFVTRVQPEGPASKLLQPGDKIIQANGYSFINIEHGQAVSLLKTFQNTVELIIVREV; partner TKNYKQTSV
Under “binding free energy change”, `Q70S` is recorded as 0.0704 kcal/mol.
`F63G`: “binding free energy change” 1.88 kcal/mol.
`E11L` — result for “binding free energy change”: -0.508 kcal/mol.
Under “binding free energy change”, `V90E` is recorded as -0.0973 kcal/mol.
Under “binding free energy change”, `G22E` is recorded as -2.49 kcal/mol.
For `L75I`, “binding free energy change” read 0.228 kcal/mol.
Under “binding free energy change”, `V72K` is recorded as 1.64 kcal/mol.
`Q50T` — result for “binding free energy change”: 0.09 kcal/mol.
`A58G`: “binding free energy change” -0.0318 kcal/mol.
`Q50K` — result for “binding free energy change”: 0.00353 kcal/mol.
`Q57A` — result for “binding free energy change”: -0.141 kcal/mol.
`V6L`: “binding free energy change” 0.116 kcal/mol.

Series 3
Target: CCND2, cyclin fold, Cln2 fusion (human)
Technique: yeast growth competition, sequencing
Sample: yeast
Setting: weak parent motif
Relative to: not given
Direction: higher = stronger binding
Parent: SLBP docking peptide (human); ARYKRKLLINDFG; partner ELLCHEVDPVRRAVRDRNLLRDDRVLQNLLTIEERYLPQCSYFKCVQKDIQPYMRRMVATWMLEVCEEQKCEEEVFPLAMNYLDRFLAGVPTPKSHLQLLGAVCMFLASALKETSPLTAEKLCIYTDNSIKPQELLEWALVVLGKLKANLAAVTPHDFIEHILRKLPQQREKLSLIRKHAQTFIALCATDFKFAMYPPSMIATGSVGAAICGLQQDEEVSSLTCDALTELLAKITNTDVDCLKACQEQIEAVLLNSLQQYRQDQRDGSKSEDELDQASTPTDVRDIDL
For `ARYKRKLPINDFG [L8P]`, “normalised enrichment score” read 0.476.
Under “normalised enrichment score”, `AFYKRKLLINDFG [R2F]` is recorded as -0.297.
Under “normalised enrichment score”, `ARYIRKLLINDFG [K4I]` is recorded as -0.0221.
Under “normalised enrichment score”, `MRYKRKLLINDFG [A1M]` is recorded as 0.429.
`ARYRRKLLINDFG [K4R]`: “normalised enrichment score” -0.283.
Under “normalised enrichment score”, `DRYKRKLLINDFG [A1D]` is recorded as 0.341.
`ARYKRNLLINDFG [K6N]`: “normalised enrichment score” 0.492.
For `ARYKRKLLIGDFG [N10G]`, “normalised enrichment score” read 0.865.
`ARYKRKLLTNDFG [I9T]`: “normalised enrichment score” 0.134.
`NRYKRKLLINDFG [A1N]` — result for “normalised enrichment score”: 0.492.

Other studies, line by line
`PhoQ, residues 284 288 289 292 302 303 DDMDFR` gave a fold induction of 0.573 (PhoP, residues 12 14 15 18 19 IFFTR (Escherichia coli, UniProt P23836); Sort-seq, refers to: YFP reporter; E. coli; PhoQ-PhoP variant library, with: 10 µM Mg2+; relative to: high Mg2+ state, higher = stronger signaling).

Some of these lines once more (series 3):
Under “normalised enrichment score”, `ARYIRKLLINDFG [K4I]` is recorded as -0.0221.
`NRYKRKLLINDFG [A1N]` — result for “normalised enrichment score”: 0.492.
Under “normalised enrichment score”, `MRYKRKLLINDFG [A1M]` is recorded as 0.429.
Under “normalised enrichment score”, `AFYKRKLLINDFG [R2F]` is recorded as -0.297.
`ARYKRKLLTNDFG [I9T]`: “normalised enrichment score” 0.134.
